Assay results pooled from the literature.
Numbered parts are unrelated; each lists some results of a single study.

Block 1
Target: Centromere-binding protein 1, full length, N-terminal tag (CBF1, Saccharomyces cerevisiae, UniProt P17106, residues 1-351)
UniProt P17106, sequence (whole entry, looked up): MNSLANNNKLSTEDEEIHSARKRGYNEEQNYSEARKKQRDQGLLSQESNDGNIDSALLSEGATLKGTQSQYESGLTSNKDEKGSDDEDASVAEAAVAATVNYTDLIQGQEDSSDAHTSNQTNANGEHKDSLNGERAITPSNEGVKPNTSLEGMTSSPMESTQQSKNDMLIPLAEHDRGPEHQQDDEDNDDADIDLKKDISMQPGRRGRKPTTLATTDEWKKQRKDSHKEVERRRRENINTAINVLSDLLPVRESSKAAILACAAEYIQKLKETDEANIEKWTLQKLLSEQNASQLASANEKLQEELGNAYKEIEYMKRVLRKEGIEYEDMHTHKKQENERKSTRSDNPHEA
Method: protein-binding microarray
Molecule type: double-stranded DNA, one strand shown
Matrix: in vitro
Concentration: 0.8 µM
Setting: whole 60-bp probe, no competitor
Reading: higher = stronger binding
Oligonucleotide | fluorescence intensity [a.u.]
GAATGCTGAAGTCATCACCAAAATTTTTCATTTTAGGTCTTGATTCGCTTGACGCTGCTG | 528
CTAGGAAACGGTTCCTTCGTGACAATTCTAGAATTCGTCTTGATTCGCTTGACGCTGCTG | 535
CTACTAAATATAGTGATCGTGGTCATAAATTAATTCGTCTTGATTCGCTTGACGCTGCTG | 596
CTAGTTTGCATTTTGCACGTTTCCCTTTCCATGTTCGTCTTGATTCGCTTGACGCTGCTG | 623

Block 2
Target: Interferon regulatory factor 3, full length, phosphomimetic (IRF3, Homo sapiens, UniProt Q14653, residues 1-427, S386D/S396D/S398D/S402D/T404D/S405D)
UniProt Q14653, sequence (whole entry, unmodified, looked up): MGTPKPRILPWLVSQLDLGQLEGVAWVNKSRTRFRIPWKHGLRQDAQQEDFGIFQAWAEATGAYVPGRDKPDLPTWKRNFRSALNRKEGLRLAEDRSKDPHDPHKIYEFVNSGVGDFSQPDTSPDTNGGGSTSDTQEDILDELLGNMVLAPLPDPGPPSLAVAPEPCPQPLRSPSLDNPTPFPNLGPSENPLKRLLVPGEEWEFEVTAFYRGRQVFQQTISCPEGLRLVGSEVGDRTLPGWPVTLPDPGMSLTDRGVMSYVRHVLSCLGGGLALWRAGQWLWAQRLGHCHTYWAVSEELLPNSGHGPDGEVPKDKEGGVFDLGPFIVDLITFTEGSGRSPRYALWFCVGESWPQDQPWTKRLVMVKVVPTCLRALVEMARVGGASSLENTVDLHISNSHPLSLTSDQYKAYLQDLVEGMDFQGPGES
Method: protein-binding microarray
Molecule type: double-stranded DNA, one strand shown
Matrix: in vitro
Concentration: 2540 nM top
Setting: 60-bp whole probe
Together with: salmon DNA 0.4 mg/ml
Relative to: random background probes
Reading: higher = stronger binding
All sequences stand within: GCCTAGCAC … GTCTTGATTCGCTTGACGCTGCTG
Oligonucleotide | fitted relative affinity [z-score]
TTAGATTTCGGGTATCGGTTAGTGCTA | 2.04
GAGGGTTTCGGTTTCGGGACGTGCTAG | 9.62
GACGGGCTCCTACTGCTGACGTGCTAG | -0.413
GACGGACTGGTACTGCTGACGTGCTAG | -0.548
GACGGTTCCGGTTTCGAGACGTGCTAG | 5.98
GACGATCTCAGTTTCGAAACGTGCTAG | 3.99
TACGAACTGAGACTGGAGACGTGCTAG | -0.316

Block 3
Target: Sal-like protein 4, full length isoform A (SALL4, Homo sapiens, UniProt Q9UJQ4, residues 1-1053)
UniProt Q9UJQ4, sequence (whole entry, looked up): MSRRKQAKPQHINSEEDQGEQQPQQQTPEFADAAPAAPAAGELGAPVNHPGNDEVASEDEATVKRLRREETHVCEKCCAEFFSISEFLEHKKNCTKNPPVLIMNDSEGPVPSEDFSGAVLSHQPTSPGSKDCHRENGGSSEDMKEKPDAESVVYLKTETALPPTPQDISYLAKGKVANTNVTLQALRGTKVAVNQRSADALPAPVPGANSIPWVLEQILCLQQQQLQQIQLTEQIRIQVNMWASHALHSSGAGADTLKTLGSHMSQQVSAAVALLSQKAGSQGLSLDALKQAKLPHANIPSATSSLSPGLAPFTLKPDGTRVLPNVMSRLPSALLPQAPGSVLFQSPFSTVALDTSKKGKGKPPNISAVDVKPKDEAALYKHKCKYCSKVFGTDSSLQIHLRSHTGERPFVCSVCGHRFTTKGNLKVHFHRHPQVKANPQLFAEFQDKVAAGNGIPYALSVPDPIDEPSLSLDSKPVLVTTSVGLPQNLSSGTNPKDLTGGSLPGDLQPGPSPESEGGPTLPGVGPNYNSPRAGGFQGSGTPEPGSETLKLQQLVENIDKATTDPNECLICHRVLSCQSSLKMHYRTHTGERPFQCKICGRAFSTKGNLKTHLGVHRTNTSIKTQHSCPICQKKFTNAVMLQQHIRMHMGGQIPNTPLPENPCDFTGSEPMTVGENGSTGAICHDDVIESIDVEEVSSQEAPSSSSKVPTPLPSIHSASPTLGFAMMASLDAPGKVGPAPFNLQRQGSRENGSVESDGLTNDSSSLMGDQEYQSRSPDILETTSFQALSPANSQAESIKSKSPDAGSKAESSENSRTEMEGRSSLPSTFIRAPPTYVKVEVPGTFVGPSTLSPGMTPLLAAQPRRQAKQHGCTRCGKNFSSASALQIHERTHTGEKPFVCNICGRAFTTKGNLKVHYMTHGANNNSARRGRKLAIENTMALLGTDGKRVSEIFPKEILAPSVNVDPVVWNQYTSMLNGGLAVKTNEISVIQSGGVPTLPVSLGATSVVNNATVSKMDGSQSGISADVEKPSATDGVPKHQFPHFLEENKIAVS
Method: universal PBM
Molecule type: double-stranded DNA, one strand shown
Matrix: in vitro
Concentration: 600 nM
Setting: 8-mer, flanks averaged, mean of replicates
Reading: higher = stronger binding
Oligonucleotide | E-score
AATAGTTA | 0.277
GGAACCAC | -0.272
CCCAGGCG | -0.306
AGGATCGG | -0.224
TATGGAAA | 0.323
TAAGTCCA | 0.0863
CATCCATG | 0.0436

Other studies, line by line
Substance | target | assay | system | setting | scale | quantity | result
PhoQ, residues 284 288 289 292 302 303 ASASEQ | PhoP, residues 12 14 15 18 19 QYCSL (Escherichia coli, UniProt P23836) | Sort-seq, refers to: YFP reporter | E. coli | PhoQ-PhoP variant library, together with: 10 µM Mg2+ | relative to: high Mg2+ state, higher = stronger signaling | fold induction | 2.5
